Measurements gathered from unrelated publications.
Each numbered part is a random draw from the data of one study; scales do not carry over between parts. Positions count from the first letter of the parent shown.

Set 1 — method: RNA Bind-n-Seq; form: RNA; matrix: in vitro; concentration: 20 nM; setting: 6-mer, flanks averaged, single round; together with: 150 mM KCl; baseline: input library; reading: higher = stronger binding
Target: TAR DNA-binding protein 43, full length, His tag (TARDBP, Homo sapiens, UniProt Q13148, residues 1-414)
Sequence	6-mer enrichment (R)
CCGUGU	0.806
UCAGCG	0.974
UACUAC	0.565
GUCGCA	0.895
CGCCAG	0.903
CUAGAU	0.589
UCUUUA	0.58
GUGAGU	1.56

Set 2 — target: inorganic phosphate, free oxyanion; method: microfluidic competitive inhibition; matrix: in vitro, cell-free expressed; concentration: not given; reading: lower = stronger binding
Setting: derived from inhibition constants, unchanged parent 615000 nM
Parent: PafA, mature enzyme, eGFP fusion (Elizabethkingia meningoseptica, UniProt Q9KJX5); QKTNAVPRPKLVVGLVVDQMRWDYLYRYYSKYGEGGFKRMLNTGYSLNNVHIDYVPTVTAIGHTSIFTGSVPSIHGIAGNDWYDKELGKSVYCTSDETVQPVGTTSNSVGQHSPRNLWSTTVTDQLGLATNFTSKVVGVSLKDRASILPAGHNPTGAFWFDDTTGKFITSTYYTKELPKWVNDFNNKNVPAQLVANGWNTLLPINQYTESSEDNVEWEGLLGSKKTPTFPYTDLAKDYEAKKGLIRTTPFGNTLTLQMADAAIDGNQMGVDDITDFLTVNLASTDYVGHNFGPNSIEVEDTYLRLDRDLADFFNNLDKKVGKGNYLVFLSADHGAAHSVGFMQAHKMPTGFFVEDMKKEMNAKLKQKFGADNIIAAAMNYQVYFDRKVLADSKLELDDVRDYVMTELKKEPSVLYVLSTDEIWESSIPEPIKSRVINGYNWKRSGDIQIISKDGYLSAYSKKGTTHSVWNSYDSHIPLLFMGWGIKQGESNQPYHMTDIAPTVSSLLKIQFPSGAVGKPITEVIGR
Substitution	phosphate dissociation constant [µM]
Y29V	557
E406G	535
N107V	626
M20V	321
Y26V	561
L479G	598
W469G	120
T174G	603
N4V	654
Y83V	467
D275V	499
G369A	632
K241V	618
L316G	672
G323V	627
Q487G	529
L193G	560
T502V	347

Set 3 — target: CCND2, cyclin fold, Cln2 fusion (human); method: yeast growth competition, sequencing; matrix: yeast; setting: weak parent motif; baseline: not given; reading: higher = stronger binding
Parent: viral docking peptide; KGVKRKLFAEDSS; partner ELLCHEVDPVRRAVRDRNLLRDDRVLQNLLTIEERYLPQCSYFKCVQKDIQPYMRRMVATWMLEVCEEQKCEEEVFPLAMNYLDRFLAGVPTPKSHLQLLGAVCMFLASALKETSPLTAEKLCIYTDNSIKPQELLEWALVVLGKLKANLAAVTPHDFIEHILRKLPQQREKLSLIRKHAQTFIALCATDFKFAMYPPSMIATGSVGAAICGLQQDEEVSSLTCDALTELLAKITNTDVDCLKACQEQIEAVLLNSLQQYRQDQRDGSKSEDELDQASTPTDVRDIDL
Substitution	normalised enrichment score
KGVKRKLFHEDSS [A9H]	-0.0724
KGVKRILFAEDSS [K6I]	0.203
KGVKRKLFAEWSS [D11W]	-0.413
KGVLRKLFAEDSS [K4L]	0.0653
KGVKRKLFAYDSS [E10Y]	-0.437
KGVKKKLFAEDSS [R5K]	0.374
KGVKRKLFAERSS [D11R]	-0.134
KGVKRKVFAEDSS [L7V]	0.0618
KGVKRKLFAEDDS [S12D]	0.285
KNVKRKLFAEDSS [G2N]	0.267
KGVKRKLFAEASS [D11A]	0.119
KGVKRKLFAEDYS [S12Y]	-0.458
KGVKRKPFAEDSS [L7P]	0.0658
KVVKRKLFAEDSS [G2V]	0.265
KRVKRKLFAEDSS [G2R]	-0.0201
KGVERKLFAEDSS [K4E]	0.0586
KGVKRKLFAEHSS [D11H]	0.169
KGVKRWLFAEDSS [K6W]	-0.247

Set 4 — target: CREB3L4, bZIP domain (human); method: DHFR protein complementation; matrix: yeast; baseline: wild-type JUN-FOS pair; reading: higher = stronger binding
Setting: single substitutions, most at no-binding floor
Parent: JUN, bZIP domain (human); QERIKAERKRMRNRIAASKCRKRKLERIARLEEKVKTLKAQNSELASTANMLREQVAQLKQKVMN; partner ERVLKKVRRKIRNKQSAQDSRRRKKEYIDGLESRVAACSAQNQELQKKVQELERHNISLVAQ
Substitution	binding fitness [natural log]
A49P	-1.57
R30H	-1.06
S47A	-1.24
Q55T	-1.49
E33V	-1.43
Q41E	-1.01
K39H	-1.4
V35A	-1.42
